Published values pooled from the literature.
Each line is one published result; not all experiments were run side by side. pEC50: −log10 of the molar value.
Cell line: MDA-MB-231

Structure (SMILES) = CN[C@@H](C)C(=O)N[C@H]1CN(C(=O)Cc2ccccc2)CC[C@H]2CC[C@@H](C(=O)NCc3ccc(Br)cc3)N2C1=O; test = TNFα-dependent cell killing, trypan blue; setting = 1 µM, 48 h, added: TNFα-blocking antibody 2 µg/mL; measurement = cell death; value = inhibited
Structure (SMILES) = CC(C)c1c(O)c(O)c2c(c1O)C(=O)C(O)=C1C(C)(C)CCCC12C (stereo not drawn); test = cell growth or viability, SRB; setting = 48 h; measurement = GI50; value = 46.9 µM
Structure (SMILES) = C[C@@H](N)[C@H](O)CCCCCCCC(=O)CCCCCCCCCCCCCC[C@@H](O[C@@H]1O[C@H](CO)[C@@H](O)[C@H](O)[C@H]1O)[C@@H](N)CO; scale = baseline: IC50 MCF-12A over IC50 MDA-MB-231; measurement = selectivity ratio; value = 10.1
Structure (SMILES) = CCC(=O)CCC[C@H](C)C[C@H](NC(=O)[C@@H]1C[C@H](C)CN1C(=O)/C=C/[C@@H](C)CC)C(=O)N[C@H](C(=O)NC(C)(C)C(=O)N[C@@H](CC(C)C)C(=O)N[C@@H](CC(C)C)C(=O)NC(C)(C)C(=O)NC(C)(C)C(=O)NCCC(=O)N[C@@H](C)CNC)[C@H](O)C(C)C; test = cell growth or viability, SRB; setting = 48 h; measurement = GI50; value = > 0.1 µM
Structure (SMILES) = C#CCOCC1=C(C(=O)OCC)C(c2cccc(Cl)c2)N2C(=N1)Sc1ccccc12 (stereo not drawn); test = MTT; setting = 100 µM, 48 h; measurement = viability; value = 48%
Structure (SMILES) = NC1CCCCC1N.O=C1[O][Pt]([O]C(=O)c2ccc(P(c3ccccc3)c3ccccc3)cc2)([O]C(=O)c2ccc(P(c3ccccc3)c3ccccc3)cc2)[O]C1=O.[Cl][Au].[Cl][Au]; test = annexin V/PI flow cytometry; setting = concentration not given, 24 h; measurement = apoptotic cells; value = 21.9%
Structure (SMILES) = CC(C)[C@@H]1NC(=O)[C@H](Cc2ccccc2)NC(=O)[C@H](Cc2ccc(O)cc2)NC(=O)CCSSC[C@@H](C(=O)N2CCC[C@H]2C(=O)N[C@H](CCCNC(=N)N)C(=O)NCC(N)=O)NC(=O)[C@H](CCC(N)=O)NC1=O; test = colony formation, clonogenic; setting = 1500 nM, 7 days; measurement = inhibition; value = 75%
Structure (SMILES) = C#CCOCC1=C(C(=O)OCC)C(c2cccc(Cl)c2)N2C=CSC2=N1 (stereo not drawn); test = MTT; setting = 100 µM, 48 h; measurement = viability; value = 62%
Structure (SMILES) = C[C@H](N)[C@@H](CCCCCCCCCCCCCCC(=O)CCCCCCC[C@@H](O)[C@@H](C)N)O[C@@H]1O[C@H](CO)[C@H](O)[C@H](O)[C@H]1O; scale = baseline: IC50 MCF-12A over IC50 MDA-MB-231; measurement = selectivity ratio; value = 3.7
Structure (SMILES) = O=C1[O][Pt]2([OH])([OH])([NH]C3CCCCC3[NH]2)[O]C1=O (stereo not drawn); test = wound-healing; setting = IC20, 24 h; measurement = migration inhibition; value = ~27%
Structure (SMILES) = COC(=O)C1CCCN1C(=O)C(Cc1ccccc1)N(C)C(=O)CC(O)C(CC(C)C)NC(=O)C(CC(C)C)N(C)C(=O)C(CC(C)C)NC(=O)C(O)C(C)C (stereo not drawn); test = RNA-seq pathway analysis, item: NOD1/2 signalling pathway; setting = 40 µM, 12 h; scale = direction not given; measurement = pathway activation z-score; value = 2
Structure (SMILES) = O=C(O)c1ccc([PH]([Au][Cl])(c2ccccc2)c2ccccc2)cc1; test = wound-healing; setting = IC20, 24 h; measurement = migration inhibition; value = 40%
Structure (SMILES) = Cc1cccc(O)c1C(=O)OCC1(O)C(Nc2ccc3c(c2)Cc2ccccc2-3)C(N)C(NC(=O)N(C)C)(C(C)O)C1(C)O (stereo not drawn); test = cell growth or viability; measurement = pEC50; value = 6.42
Structure (SMILES) = CCC(=O)C[C@@H](O)C[C@@H](C)C[C@H](NC(=O)[C@@H]1C[C@H](C)CN1C(=O)/C=C/[C@@H](C)CC)C(=O)N[C@H](C(=O)NC(C)(C)C(=O)N[C@@H](CC(C)C)C(=O)N[C@@H](CC(C)C)C(=O)NC(C)(C)C(=O)NC(C)(C)C(=O)NCCC(=O)N[C@@H](C)CNC)[C@H](O)C(C)C; test = cell growth or viability, SRB; setting = 48 h; measurement = GI50; value = > 0.1 µM
Structure (SMILES) = CC/C=C\C/C=C\C/C=C\C/C=C\C/C=C\C/C=C\CCC(=O)Nc1ccn(C2OC(CO)C(O)C2(F)F)c(=O)n1 (stereo not drawn); test = NCI-60 screen; measurement = CC50; value = 53.5 µM
Structure (SMILES) = N=C(N)NCCC[C@H](NC(=O)[C@H](CCCNC(=N)N)NC(=O)[C@@H]1CCCN1C(=O)[C@H](CCCNC(=N)N)NC(=O)[C@H](CCCNC(=N)N)NC(=O)[C@H](CCCNC(=N)N)NC(=O)[C@H](Cc1c[nH]c2ccccc12)NC(=O)[C@H](CCCNC(=N)N)NC(=O)[C@H](CCCNC(=N)N)NC(=O)[C@H](CCCNC(=N)N)NC(=O)[C@H](CCCNC(=N)N)NC(=O)[C@H](CCCNC(=N)N)NC(=O)[C@H](Cc1c[nH]c2ccccc12)NC(=O)[C@H](CCCNC(=N)N)NC(=O)[C@H](CCCNC(=N)N)NC(=O)[C@H](Cc1ccc(O)cc1)NC(=O)[C@H](CCCNC(=N)N)NC(=O)[C@H](CCCNC(=N)N)NC(=O)[C@H](CCCNC(=N)N)NC(=O)[C@@H](N)Cc1c[nH]c2ccccc12)C(N)=O; test = AFM; setting = IC50, 24 h; scale = baseline: untreated; measurement = cell height and roughness; value = no effect
Structure (SMILES) = CC(C)C(C)C=CC(C)C1CCC2C1(C)CCC1C23C=CC2(CC(OC(=O)CCCCC4SCC5NC(=O)NC54)CCC12C)OO3 (stereo not drawn); test = cell growth or viability, ATP luminescence; measurement = pEC50; value = 5.00
Structure (SMILES) = CCCC[C@H](O)C[C@@H](C)C[C@H](NC(=O)[C@@H]1C[C@H](C)CN1C(=O)/C=C/[C@@H](C)CC)C(=O)N[C@H](C(=O)NC(C)(C)C(=O)N[C@@H](CC(C)C)C(=O)N[C@@H](CC(C)C)C(=O)NC(C)(C)C(=O)NC(C)(C)C(=O)NCCC(=O)N[C@@H](C)CN(C)C)[C@H](O)C(C)C; test = cell growth or viability, SRB; setting = 48 h; measurement = GI50; value = > 0.1 µM

For quick reference, copied from above:
Structure (SMILES) = Cc1cccc(O)c1C(=O)OCC1(O)C(Nc2ccc3c(c2)Cc2ccccc2-3)C(N)C(NC(=O)N(C)C)(C(C)O)C1(C)O (stereo not drawn); test = cell growth or viability; measurement = pEC50; value = 6.42
